Results collected from several papers.
Compare with care: the assays were run in different laboratories.
Cell line: THP-1

Under mRNA level, `N#Cc1ccc2c(CN3CCOCC3)cc(-c3ccc([C@H]4CCC(=O)N4)cc3)nc2c1` is recorded as “decreased” (decreased, measured: CCL2; 10 µM, added: CML-HSA; baseline: vehicle).
`CCn1cc(-c2cc(Cn3ccoc3=N)cc3c2CCN([C@@H](C)c2cc(OC)ccn2)C3=O)c(C(F)(F)F)n1` gave an EC50 of 257 nM (cell growth, inhibitor; 120 h).
For `CC(C)(N)C(=O)O`, the inhibition was 1.1% (pyroptotic LDH release; 2 µM, 40 min, added: LPS then nigericin).
The IC50 of `O=C1/C(=C/c2ccccc2)C(NC2CCCCC2)c2ccccc21` (stereo not shown) is reported as 232 nM (pyroptotic cell death, inhibitor, CellTiter-Glo; added: LPS priming and nigericin).
The EC50 of `N[C@H]1CC[C@H](N[C@@H]2C[C@H]2c2ccccc2)CC1` is reported as 0.04 nM (differentiation, flow cytometry, measured: CD11b; 96 h).
The IC50 of `C=CC(=O)N1CC/C(=C\c2ccc(F)c([N+](=O)[O-])c2)C(=O)/C(=C/c2ccc(F)c([N+](=O)[O-])c2)C1` is reported as 391 nM (IL-1β secretion, inhibitor, reporter, HEK-Blue, IL-1β; added: LPS and ATP).
`CC(=O)N[C@@H](CCC(=O)O)C(=O)O` has an inhibition of -5.86% (pyroptotic LDH release; 2 µM, 40 min, added: LPS then nigericin).
With `Nc1ncc(-c2cnn(C3CCNCC3)c2)cc1-c1nnc(CC2CC2)o1` the IC50 was 164 nM (cell viability; 72 h).
For `C#CCN(C)Cc1ccccc1`, the EC50 was > 2000 nM (differentiation, flow cytometry, measured: CD11b; 96 h).
`O=C1c2ccccc2-c2ccccc21` gave an inhibition of 2.6% (pyroptotic LDH release; 2 µM, 40 min, added: LPS then nigericin).
`CC1=C(CO)C(=O)O[C@@H]([C@@H](C)[C@H]2CC[C@H]3[C@@H]4C[C@H]5O[C@]56[C@@H](O)C=CC(=O)[C@]6(C)[C@H]4CC[C@]23C)C1` gave a maximum protection of 63.4% (pyroptotic cell death, CellTiter-Glo; added: LPS priming and nigericin).
With `CCn1cc(-c2cc(Cn3ccnc3)cc3c2CCN([C@H](c2cc(OC)ccn2)C2CC2)C3=O)c(C(F)(F)F)n1` the EC50 was > 30000 nM (cell growth, inhibitor; 120 h).
`CN1CC(Oc2cnc(C#N)cc2-c2ccn3nc(NC(=O)C4CC4)cc3c2)C1` has an EC50 of 980 nM (nuclear translocation, measured: CRTC3; representative triplicate curve).
`C[C@H](NC(=O)C(=O)Nc1ccccc1C(C)(C)C)C(=O)N[C@@H](CC(=O)O)C(=O)COc1c(F)c(F)cc(F)c1F` has a viability of 42.3% (inhibitor, CellTiter-Glo; 10 µM, added: staurosporine 1 µM).
`C[C@@H]1CCC[C@H](C)N1NC(=O)c1ccc(Cl)c(S(N)(=O)=O)c1` has an inhibition of -5.66% (pyroptotic LDH release; 2 µM, 40 min, added: LPS then nigericin).
`CN1CCN(C(=O)[C@H](CCCN[C@@H]2C[C@H]2c2ccc(F)cc2)NC(=O)c2ccc(-n3ccnn3)cc2)CC1` gave an EC50 of 4.15 nM (differentiation, flow cytometry, measured: CD11b; 96 h).
With `C=CCNC(N)=S` the inhibition was 33.2% (pyroptotic LDH release; 2 µM, 40 min, added: LPS then nigericin).
`C[C@@H](O)[C@H](NC(=O)[C@H](CCCNC(=N)N)NC(=O)[C@H](CC(N)=O)NC(=O)[C@H](CC(N)=O)NC(=O)[C@@H](N)CCCNC(=N)N)C(=O)N[C@@H](CO)C(=O)NCC(=O)N[C@@H](Cc1ccccc1)C(=O)N[C@@H](CCCCN)C(=O)N[C@@H](Cc1c[nH]c2ccccc12)C(=O)O`: “active β-catenin level” 1.4 (Western blot; 1.0 µM, 3 days, unit not given, added: WNT3A; baseline: WNT3A alone).
For `CCCN1CCCC[C@H]1C(=O)Nc1c(C)cccc1C`, the inhibition was 4.05% (pyroptotic LDH release; 2 µM, 40 min, added: LPS then nigericin).
For `CC1(C)CC[C@]2(NC(=O)C(C)(F)F)CC[C@]3(C)[C@H](C(=O)C=C4[C@@]5(C)C=C(C#N)C(=O)C(C)(C)[C@@H]5CC[C@]43C)[C@@H]2C1`, the maximum protection was 50.9% (pyroptotic cell death, CellTiter-Glo; added: LPS priming and nigericin).
`COc1ccc(CC(=O)O)cc1OC` has an inhibition of 12.1% (pyroptotic LDH release; 2 µM, 40 min, added: LPS then nigericin).
The IC50 of `COC(=O)/C=C/C(=O)OCCN1C(=O)CCC1=O` is reported as 1940 nM (pyroptotic cell death, inhibitor, CellTiter-Glo; added: LPS priming and nigericin).
